Assay results gathered from unrelated publications.
Compare with care: the assays were run in different laboratories. Several values in a cell are separate wells, animals, samples, runs or records. Numbers after ± are the reported error.
ACVR1 R206H: Activin receptor type-1 (ACVR1, Homo sapiens, UniProt Q04771, R206H)
Sequence of UniProt Q04771 (whole entry, unmodified, looked up): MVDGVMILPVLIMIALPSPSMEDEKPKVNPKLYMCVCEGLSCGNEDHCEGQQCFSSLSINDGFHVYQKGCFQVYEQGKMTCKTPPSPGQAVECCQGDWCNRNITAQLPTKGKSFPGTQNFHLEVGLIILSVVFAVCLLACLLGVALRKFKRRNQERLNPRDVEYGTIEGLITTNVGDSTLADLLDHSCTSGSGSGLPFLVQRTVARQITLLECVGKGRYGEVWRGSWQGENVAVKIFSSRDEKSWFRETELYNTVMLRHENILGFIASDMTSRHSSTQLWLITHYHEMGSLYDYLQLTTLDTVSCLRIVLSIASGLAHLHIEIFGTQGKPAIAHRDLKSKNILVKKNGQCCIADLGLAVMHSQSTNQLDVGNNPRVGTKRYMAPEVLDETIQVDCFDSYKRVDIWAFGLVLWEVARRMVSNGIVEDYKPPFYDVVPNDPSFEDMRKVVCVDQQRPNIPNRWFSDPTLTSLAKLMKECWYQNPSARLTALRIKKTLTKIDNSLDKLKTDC
TPR: Trypanothione reductase (TPR, Trypanosoma brucei brucei, UniProt P39051)
Sequence of UniProt P39051 (whole entry, looked up): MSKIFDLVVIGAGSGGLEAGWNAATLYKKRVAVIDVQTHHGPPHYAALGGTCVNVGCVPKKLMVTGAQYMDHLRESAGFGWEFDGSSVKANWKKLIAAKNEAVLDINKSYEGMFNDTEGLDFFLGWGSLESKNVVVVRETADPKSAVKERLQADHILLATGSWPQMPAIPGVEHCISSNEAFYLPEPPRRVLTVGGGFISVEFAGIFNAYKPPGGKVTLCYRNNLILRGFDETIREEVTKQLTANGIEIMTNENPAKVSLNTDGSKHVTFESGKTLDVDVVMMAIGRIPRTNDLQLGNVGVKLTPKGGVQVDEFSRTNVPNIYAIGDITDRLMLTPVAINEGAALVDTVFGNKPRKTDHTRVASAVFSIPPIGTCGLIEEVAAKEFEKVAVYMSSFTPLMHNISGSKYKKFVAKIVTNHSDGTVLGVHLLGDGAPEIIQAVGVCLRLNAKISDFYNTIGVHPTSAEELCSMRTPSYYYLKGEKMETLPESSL
SEC14: SEC14 (Saccharomyces cerevisiae, UniProt P24280)
Sequence of UniProt P24280 (whole entry, looked up): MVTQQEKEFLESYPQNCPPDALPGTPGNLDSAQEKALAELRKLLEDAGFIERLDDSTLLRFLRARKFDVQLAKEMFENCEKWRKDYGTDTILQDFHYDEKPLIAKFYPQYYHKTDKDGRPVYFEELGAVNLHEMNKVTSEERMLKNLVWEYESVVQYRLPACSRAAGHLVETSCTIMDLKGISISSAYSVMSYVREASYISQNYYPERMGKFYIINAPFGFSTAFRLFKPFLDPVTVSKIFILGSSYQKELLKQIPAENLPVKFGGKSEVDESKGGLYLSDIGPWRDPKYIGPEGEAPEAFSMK
JAK2: Tyrosine-protein kinase JAK2 (JAK2, Homo sapiens, UniProt O60674)
Sequence of UniProt O60674 (whole entry, looked up): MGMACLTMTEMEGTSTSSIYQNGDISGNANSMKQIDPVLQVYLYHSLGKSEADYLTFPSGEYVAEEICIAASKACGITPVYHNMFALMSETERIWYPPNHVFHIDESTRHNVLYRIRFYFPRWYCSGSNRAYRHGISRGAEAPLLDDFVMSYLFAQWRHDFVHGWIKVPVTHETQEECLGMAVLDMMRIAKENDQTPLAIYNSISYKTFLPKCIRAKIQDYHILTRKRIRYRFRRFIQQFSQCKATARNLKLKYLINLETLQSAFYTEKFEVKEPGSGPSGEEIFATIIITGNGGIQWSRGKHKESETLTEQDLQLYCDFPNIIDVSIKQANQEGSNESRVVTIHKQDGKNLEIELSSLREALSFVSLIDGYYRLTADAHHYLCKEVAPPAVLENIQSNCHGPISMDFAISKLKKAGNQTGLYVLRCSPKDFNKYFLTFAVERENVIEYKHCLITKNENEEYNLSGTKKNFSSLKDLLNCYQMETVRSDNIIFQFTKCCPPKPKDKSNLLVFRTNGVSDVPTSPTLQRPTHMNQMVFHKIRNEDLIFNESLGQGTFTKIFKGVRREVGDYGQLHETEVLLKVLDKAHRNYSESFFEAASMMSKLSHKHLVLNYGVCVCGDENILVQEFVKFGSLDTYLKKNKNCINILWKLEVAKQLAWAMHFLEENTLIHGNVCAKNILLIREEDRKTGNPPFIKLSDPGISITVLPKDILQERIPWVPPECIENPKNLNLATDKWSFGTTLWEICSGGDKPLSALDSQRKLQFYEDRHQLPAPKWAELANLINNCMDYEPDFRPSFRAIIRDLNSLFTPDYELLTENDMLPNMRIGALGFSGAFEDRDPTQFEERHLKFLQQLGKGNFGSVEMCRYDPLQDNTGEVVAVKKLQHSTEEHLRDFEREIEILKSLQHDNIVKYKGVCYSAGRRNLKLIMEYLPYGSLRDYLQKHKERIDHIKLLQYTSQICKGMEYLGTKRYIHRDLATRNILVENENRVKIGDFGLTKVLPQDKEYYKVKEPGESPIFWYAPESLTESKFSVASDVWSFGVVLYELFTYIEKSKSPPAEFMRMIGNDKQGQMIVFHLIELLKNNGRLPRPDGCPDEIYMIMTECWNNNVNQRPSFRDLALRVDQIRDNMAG
FGFR4: Fibroblast growth factor receptor 4 (FGFR4, Homo sapiens, UniProt P22455)
Sequence of UniProt P32745 (whole entry, looked up): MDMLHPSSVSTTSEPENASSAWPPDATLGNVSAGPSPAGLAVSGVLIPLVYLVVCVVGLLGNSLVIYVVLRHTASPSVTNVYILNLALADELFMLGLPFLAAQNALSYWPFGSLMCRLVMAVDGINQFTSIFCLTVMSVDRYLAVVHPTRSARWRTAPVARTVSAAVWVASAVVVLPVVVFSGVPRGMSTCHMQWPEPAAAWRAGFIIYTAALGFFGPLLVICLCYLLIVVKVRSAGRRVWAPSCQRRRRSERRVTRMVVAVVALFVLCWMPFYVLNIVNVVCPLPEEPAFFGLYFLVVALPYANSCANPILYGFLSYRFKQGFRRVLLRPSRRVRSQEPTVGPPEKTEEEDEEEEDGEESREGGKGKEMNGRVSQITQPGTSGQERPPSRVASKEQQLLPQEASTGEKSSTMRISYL
Sequence of UniProt P22455 (whole entry, looked up): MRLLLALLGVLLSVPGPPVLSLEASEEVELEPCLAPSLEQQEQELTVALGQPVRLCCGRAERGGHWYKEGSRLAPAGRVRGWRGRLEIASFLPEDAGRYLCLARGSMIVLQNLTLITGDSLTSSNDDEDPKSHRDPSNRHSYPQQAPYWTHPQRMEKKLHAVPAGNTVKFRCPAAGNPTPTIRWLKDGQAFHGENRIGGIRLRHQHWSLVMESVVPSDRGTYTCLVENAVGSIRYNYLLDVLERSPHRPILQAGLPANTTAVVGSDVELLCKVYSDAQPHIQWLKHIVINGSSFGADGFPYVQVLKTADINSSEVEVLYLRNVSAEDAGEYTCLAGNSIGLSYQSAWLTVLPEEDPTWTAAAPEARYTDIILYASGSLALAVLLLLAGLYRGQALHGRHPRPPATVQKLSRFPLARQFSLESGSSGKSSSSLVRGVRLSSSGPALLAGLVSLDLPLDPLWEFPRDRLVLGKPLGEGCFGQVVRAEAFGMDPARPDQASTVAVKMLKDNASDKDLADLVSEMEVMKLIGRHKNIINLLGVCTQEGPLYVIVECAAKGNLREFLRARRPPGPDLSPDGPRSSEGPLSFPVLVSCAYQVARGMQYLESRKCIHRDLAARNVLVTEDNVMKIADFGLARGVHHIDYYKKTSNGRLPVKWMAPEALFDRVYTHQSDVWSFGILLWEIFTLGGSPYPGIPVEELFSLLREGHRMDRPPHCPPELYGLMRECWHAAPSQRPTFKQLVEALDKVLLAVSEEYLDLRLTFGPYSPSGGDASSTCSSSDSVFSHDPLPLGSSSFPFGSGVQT
Sequence of UniProt P51812 (whole entry, unmodified, looked up): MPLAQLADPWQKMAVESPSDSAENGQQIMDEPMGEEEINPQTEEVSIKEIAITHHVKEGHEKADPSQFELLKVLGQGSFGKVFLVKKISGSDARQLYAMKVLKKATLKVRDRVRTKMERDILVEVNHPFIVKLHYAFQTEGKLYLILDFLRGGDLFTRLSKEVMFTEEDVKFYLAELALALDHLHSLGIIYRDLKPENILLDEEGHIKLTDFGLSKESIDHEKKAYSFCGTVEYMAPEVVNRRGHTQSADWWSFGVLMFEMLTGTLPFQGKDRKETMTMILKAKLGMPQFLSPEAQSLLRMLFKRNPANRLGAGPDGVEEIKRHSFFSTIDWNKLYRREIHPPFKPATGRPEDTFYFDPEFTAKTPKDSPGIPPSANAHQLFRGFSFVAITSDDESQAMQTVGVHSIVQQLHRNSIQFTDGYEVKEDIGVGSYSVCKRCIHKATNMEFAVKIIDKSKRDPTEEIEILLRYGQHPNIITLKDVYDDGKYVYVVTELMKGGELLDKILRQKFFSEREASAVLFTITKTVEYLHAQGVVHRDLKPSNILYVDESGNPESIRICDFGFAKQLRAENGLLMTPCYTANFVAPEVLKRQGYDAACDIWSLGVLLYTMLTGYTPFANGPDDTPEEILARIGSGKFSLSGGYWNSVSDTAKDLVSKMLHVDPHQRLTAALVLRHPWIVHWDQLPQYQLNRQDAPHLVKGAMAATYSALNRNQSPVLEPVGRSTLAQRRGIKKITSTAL
Sequence of UniProt P52699 (whole entry, looked up): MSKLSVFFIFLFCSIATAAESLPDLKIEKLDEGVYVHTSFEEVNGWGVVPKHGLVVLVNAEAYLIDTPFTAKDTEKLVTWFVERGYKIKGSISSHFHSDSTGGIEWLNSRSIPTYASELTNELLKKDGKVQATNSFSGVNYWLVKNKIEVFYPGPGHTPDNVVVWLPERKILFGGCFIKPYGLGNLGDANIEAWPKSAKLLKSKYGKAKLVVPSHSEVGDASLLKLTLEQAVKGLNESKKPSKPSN
Sequence of UniProt P47811 (whole entry, looked up): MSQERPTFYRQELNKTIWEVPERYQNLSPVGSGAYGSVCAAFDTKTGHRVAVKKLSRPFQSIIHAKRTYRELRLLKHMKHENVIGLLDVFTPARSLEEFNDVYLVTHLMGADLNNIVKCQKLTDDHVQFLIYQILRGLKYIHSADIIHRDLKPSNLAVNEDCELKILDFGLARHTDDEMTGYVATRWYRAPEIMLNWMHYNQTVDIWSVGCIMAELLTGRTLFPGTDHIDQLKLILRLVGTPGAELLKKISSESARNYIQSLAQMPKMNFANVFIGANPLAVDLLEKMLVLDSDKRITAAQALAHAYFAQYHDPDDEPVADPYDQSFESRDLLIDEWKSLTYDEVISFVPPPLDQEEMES

Structure (SMILES)	target	assay	system	setting	IC50
CC(C)NCc1ccc(C[C@@H]2NC(=O)[C@@H](Cc3c[nH]c4ccccc34)NC(=O)[C@H](Cc3ccc(O)cc3)NC(=O)[C@H](NC(=O)[C@@H](N)Cc3ccc(Cl)cc3)CSSC[C@@H](C(=O)N[C@@H](Cc3ccc4ccccc4c3)C(N)=O)NC(=O)[C@H]([C@@H](C)O)NC2=O)cc1	SSTR3 (Homo sapiens, UniProt P32745)	ligand displacement, radioligand	–	cell membranes	0.3 µM and 0.234 µM and ~0.35 µM
O=C(O)c1cc2ccccc2o1	Adenylate cyclase type 10 (Homo sapiens, UniProt Q96PN6)	–	–	–	> 1000 µM
CC[C@H](C)[C@H](NC(=O)CNC(=O)[C@H](CC(=O)O)NC(=O)[C@H](CO)NC(=O)C=Cc1c[nH]cn1)C(=O)N[C@@H](Cc1ccccc1)C(=O)N[C@H](C(=O)N[C@@H](CC(=O)O)C(=O)N[C@@H](CO)C(=O)N[C@@H](Cc1ccc(O)cc1)C(=O)N[C@@H](CO)C(=O)N[C@@H](CCCNC(=N)N)C(=O)N[C@@H](Cc1ccc(O)cc1)C(=O)N[C@@H](CCCNC(=N)N)C(=O)N[C@@H](CCCCN)C(=O)N[C@@H](CCC(N)=O)C(=O)N[C@@H](CCSC)C(=O)N[C@@H](C)C(=O)N[C@H](C(=O)N[C@@H](CCCCN)C(=O)N[C@@H](CCCCN)C(=O)N[C@@H](C)C(=O)N[C@@H](CC(C)C)C(=O)N[C@@H](C)C(=O)N[C@@H](C)C(=O)N[C@H](C(=O)N[C@@H](CC(C)C)C(=O)NCC(=O)N[C@@H](CCCCN)C(=O)N[C@@H](CCCNC(=N)N)C(=O)N[C@@H](Cc1ccc(O)cc1)C(=O)N[C@@H](CCCCN)C(=O)N[C@@H](CCC(N)=O)C(=O)N[C@@H](CCCNC(=N)N)C(=O)N[C@H](C(=O)N[C@@H](CCCCN)C(=O)N[C@@H](CC(N)=O)C(=O)N[C@@H](CCCCN)C(N)=O)C(C)C)C(C)C)C(C)C)[C@@H](C)O	ADCYAP1R1 (Homo sapiens, UniProt P41586)	ligand displacement, radioligand	–	–	0.00741 µM
Cc1cc(O)cc2c1C(=O)c1c(cc3oc(=O)cc(-c4ccc(O)cc4)c3c1O)C2=O	mushroom tyrosinase	enzyme activity	–	with: L-DOPA	> 100 µg/mL
NS(=O)(=O)c1ccc(-n2cc(CNc3ccc(Cl)cc3)c(-c3ccc(OCc4ccccc4)cc3)n2)cc1	PTGS1 (Homo sapiens, UniProt P23219)	enzyme activity, inhibitor, absorbance	–	–	193 µM
CC(=O)NCCN(CC(=O)NCCN(CC(=O)NCCN(CC(=O)NCCC(N)=O)C(=O)C[C@@H](N)Cc1ccccc1)C(=O)C[C@@H](N)CCCNC(=N)N)C(=O)C[C@@H](N)Cc1ccccc1	HIV-1 TAR RNA	Tat/TAR complex displacement, FRET	–	room temperature, with: 10 nM Tat/TAR complex	8.7 ± 0.4 µM
CNC(=O)C1CCN(c2ccccc2NC(=O)c2ccc(-c3c(C)ccc4[nH]ncc34)c(C)c2)CC1	EPHA4 (Homo sapiens, UniProt P54764)	target engagement in cells, BRET	–	–	0.013 µM
N#C/C(=C\c1ccc2ccncc2c1)C(N)=O	Ribosomal protein S6 kinase alpha-3, C-terminal kinase domain (RPS6KA3, Homo sapiens, UniProt P51812, T493M)	kinase activity, inhibitor	–	with: 0.1 mM ATP	6.4 µM
COCCCN1CCc2c(Cc3ccc(Cl)cc3)[nH]c3c(OC(F)F)ccc(c23)C1=O	PDE9A (Homo sapiens, UniProt O76083)	enzyme activity, inhibitor	–	–	> 10 µM
CCOC(=O)N1CCN(Cc2nc3c(c(=O)n(C)c(=O)n3C)n2CCC(C)C)CC1	ALDH2 (Homo sapiens, UniProt P05091)	enzyme activity, inhibitor	–	–	> 57 µM
C=C(C)C(=O)Nc1ccc(-c2c(C#Cc3cc(OC)cc(OC)c3)c3c(N)ncnc3n2C)cc1	FGFR2 (Homo sapiens, UniProt P21802)	Caliper mobility shift	–	30 min preincubation, with: 100 µM ATP	0.037 µM
Cc1ccc(N2C(=O)c3ccccc3NC23C(=O)N(C)c2ccc(Br)cc23)cc1 (centres unmarked)	LNPEP (Homo sapiens, UniProt Q9UIQ6)	enzyme activity, inhibitor	HEK293 membranes overexpressing IRAP	with: L-Leu-pNA	15.8 µM
O=C(O)CC(O)C(=O)O (centres unmarked)	PPCA1 (Flaveria pringlei, UniProt Q01647)	enzyme activity, inhibitor	–	–	2900 µM
COc1cc(-c2nc3ccc(C(=O)NCCN4CCN(C5CCCCC5)CC4)cc3n2C2CCC2)cc(OC)c1OC	ACVR1 R206H	binding, NanoBRET	HEK293	–	3.16 µM
Cc1cn([C@H]2C[C@H](O)[C@@H](COP(=O)(O)O)O2)c(=O)[nH]c1=O	Thymidylate kinase (DTYMK, Homo sapiens, UniProt P23919)	ligand displacement	–	–	4.6 µM
Cc1ccc(-c2nc3ccc(Cl)cc3c(C(=O)NCCN(C)C)c2C)cc1	TPR	inhibitor, DTNB-coupled colourimetric	–	with: substrate at Km	26.5 µM
O=C(c1ccccc1I)N1CCN(c2ccc(F)cc2)CC1	SEC14	enzyme activity, inhibitor, radiometric	–	–	> 100 µM
C=C(NC(=O)C(=C)NC(=O)c1csc(C2=NC3c4csc(n4)C4NC(=O)c5csc(n5)C(C(C)(O)C(C)O)NC(=O)C5CSC(=N5)C(=CC)NC(=O)C(C(C)O)NC(=O)c5csc(n5)C3(CC2)NC(=O)C(Cc2ccccc2)NC(=O)C(=C)NC(=O)C(C)NC(=O)C(C(C)CC)NC2C=Cc3c(C(C)O)cc(nc3C2O)C(=O)OC4C)n1)C(N)=O (centres unmarked)	Proteasome subunit beta type-7, in 20S proteasome (PSMB7, Homo sapiens, UniProt Q99436)	trypsin-like activity, inhibitor	purified 20S proteasome	15 min preincubation, 37 °C, with: Boc-Leu-Arg-Arg-AMC substrate	0.24 ± 0.03 µM
Nc1ncc(-c2cnn(C3CCNCC3)c2)cc1-c1nc2cc(F)cc(O)c2o1	JAK2	enzyme activity, inhibitor, TR-FRET	–	–	0.81 µM
Cc1nccn1-c1c[nH]n(-c2ccccn2)c1=O	EGLN2 (Homo sapiens, UniProt Q96KS0)	enzyme activity, inhibitor, europium VBC binding	–	10 µM FeSO4, 2 mM ascorbate, with: 20 µM 2-oxoglutarate	15 µM
O=C(c1ccc(Cl)cc1)N1CCN(c2ccc(F)cc2)CC1	SEC14	enzyme activity, inhibitor, radiometric	–	–	2.55 µM
COc1cccc(Cc2c[nH]c3ncc(C(F)(F)F)cc23)c1	FGFR4	enzyme activity, inhibitor	–	–	> 3 µM

Structure (SMILES)	target	assay	system	setting	IC50
Nc1ncnc2c1ncn2C1OC(COP(=O)(O)O)C(O)C1O (centres unmarked)	Sensor histidine protein kinase/phosphatase WalK (walK, Streptococcus pneumoniae, UniProt Q8DPL8)	enzyme activity, ATP-competitive inhibitor	–	–	7150 µM
COc1cc(-c2nc3ccc(C(=O)NCCCN4CCN(c5ccccc5)C(=O)C4)cc3n2C2CCC2)cc(OC)c1OC	ACVR1 R206H	binding, NanoBRET	HEK293	–	2.27 µM
COc1ccc(-c2cc(/C=C3/SC(=S)NC3=O)no2)cc1	CD38 (Homo sapiens, UniProt P28907)	enzyme activity, inhibitor, fluorescence	–	–	3.71 µM
Nc1ncc(-c2cnn(C3CCNCC3)c2)cc1-c1nc2ccc(Oc3ccccn3)cc2o1	JAK2	enzyme activity, inhibitor, TR-FRET	–	–	0.31 µM
Cc1ccc(CC(=O)N(CCCn2ccnc2)c2nc3ccccc3s2)c(C)c1	CHD1L (Homo sapiens, UniProt Q86WJ1)	ATPase activity, inhibitor	–	1 h, 37 °C, with: ATP 10 µM	4.61 µM
Cc1nc(NC(=O)N2CCCC2)sc1-c1csc(C(C)(C)C)n1	PIK3C2A (Homo sapiens, UniProt O00443)	enzyme activity, inhibitor	–	–	> 10 µM
O=C1Nc2ccc(-c3ccc(C(=O)N4CCOCC4)cc3)cc2/C1=C/c1ccc(N2CCNCC2)cc1	FGFR4	enzyme activity, inhibitor	–	–	28.1 µM
CC(C)C[C@H](NC(=O)[C@H](CC(N)=O)NC(=O)[C@H](CC(C)C)NC(=O)[C@@H](NC(=O)[C@@H](NC(=O)[C@@H]1CCCN1C(=O)[C@H](CCCNC(=N)N)NC(=O)[C@H](CCCCN)NC(=O)[C@@H]1CCCN1C(=O)[C@H](CCCNC(=N)N)NC(=O)[C@@H]1CCCN1C(=O)[C@@H]1CCCN1C(=O)[C@H](CCCNC(=N)N)NC(=O)[C@H](CCCNC(=N)N)NC(=O)[C@H](CCCNC(=N)N)NC(=O)[C@H](CCC(N)=O)NC(=O)[C@H](CCCNC(=N)N)NC(=O)[C@H](CCCNC(=N)N)NC(=O)[C@H](CCCCN)NC(=O)[C@H](CCCCN)NC(=O)[C@H](CCCNC(=N)N)NC(=O)CN)[C@@H](C)O)[C@@H](C)O)C(=O)N[C@@H](Cc1ccccc1)C(=O)N1CCC[C@H]1C(=O)N[C@@H](CCC(N)=O)C(=O)N[C@H](C(=O)N1CCC[C@H]1C(=O)N[C@@H](CCCNC(=N)N)C(=O)N[C@@H](CO)C(=O)N[C@@H](CCC(N)=O)C(=O)N[C@@H](CC(=O)O)C(=O)N[C@H](C(N)=O)[C@@H](C)O)C(C)C	Mapk14 (Mus musculus, UniProt P47811)	inhibitor	–	–	1.45 ± 0.1 µM
CCOC(=O)C(CS)N1C(=O)c2ccc(N(C)C)cc2C1=O (centres unmarked)	Metallo-beta-lactamase type 2 (Serratia marcescens, UniProt P52699)	enzyme activity, inhibitor	–	pH 7.0, with: chromacef 25 µM	0.026 ± 0.003 µM
Cc1ccc(-c2cc(C(=O)NCCCN3CCOCC3)c3cc(Cl)ccc3n2)o1	TPR	inhibitor, DTNB-coupled colourimetric	–	with: substrate at Km	11.6 µM
NC(=O)CNC(=O)[C@@H]1CCCN1C(=O)[C@H](Cc1ccc(O)cc1)NC(=O)[C@H](Cc1c[nH]c2ccccc12)NC(=O)[C@@H](Cc1c[nH]c2ccccc12)NC(=O)[C@H](Cc1c[nH]cn1)NC(=O)[C@H](CO)NC(=O)[C@H](Cc1c[nH]c2ccccc12)NC(=O)[C@H](Cc1c[nH]cn1)NC(=O)[C@@H]1CCC(=O)N1	Gonadotropin-releasing hormone receptor (Rattus norvegicus, UniProt P30969)	binding, radioligand displacement	WPE-1-NB26-3 expressing Gonadotropin-releasing hormone receptor, whole cells	with: radioiodinated GnRH analogue	0.0026 ± 0.0003 µM
CNC(=O)c1cc(C)ccc1NC(=O)c1ccc(-c2c(C)ccc3[nH]ncc23)c(C)c1	EPHB2 (Homo sapiens, UniProt P29323)	target engagement in cells, BRET	–	–	0.294 µM
COc1cccc(/C=C/C(=O)c2cccc(C)c2)c1OC	Seed linoleate 13S-lipoxygenase-1 (Glycine max, UniProt P08170)	enzyme activity, inhibitor, absorbance	–	–	25.9 µM
C=CCc1ccc(O)c(-c2cc(CC=C)ccc2OCCCC[P+](c2ccccc2)(c2ccccc2)c2ccccc2)c1	mitochondrial complex I (human)	oxygen consumption, inhibitor	UACC-62 (permeabilized)	24 h	2.4 µM
CC(=O)N[C@H]1[C@@H](OC(=O)NCCCOCCOCCOCCCNC(=O)O[C@H]2O[C@H](CNC(=O)OCCOCCOCCOCCOCCOCCOCCOC(=O)NC[C@H]3O[C@H](OC(=O)NCCCOCCOCCOCCCNC(=O)O[C@H]4O[C@H](CO)[C@@H](O)[C@H](O)[C@H]4NC(C)=O)[C@H](NC(C)=O)[C@@H](O)[C@@H]3O)[C@@H](O)[C@H](O)[C@H]2NC(C)=O)O[C@H](CO)[C@@H](O)[C@@H]1O	wheat germ agglutinin (Triticum vulgaris)	binding to immobilised GlcNAc, inhibitor, enzyme-linked lectin	–	with: HRP-labelled WGA	0.015 µM
Cc1ccc(C=C2C(=O)c3ccccc3C2NC2CCCCC2)cc1 (racemic)	Dual specificity protein phosphatase 6 (Homo sapiens, UniProt Q16828)	ERK phosphorylation restoration, inhibitor, chemical complementation	HeLa transfected with c-Myc-DUSP6	15 min, with: TPA	64.7 ± 15.7 µM
Nc1ncnc2c1ncn2C1OC(COP(=O)(O)O)C(O)C1O (centres unmarked)	Fructose-1,6-bisphosphatase 1 (Mus musculus, UniProt Q9QXD6)	enzyme activity, inhibitor	native enzyme from mouse liver	–	~20 µM
CC(=O)N[C@@H]1[C@@H](OC(C)=O)[C@@H](O)[C@H](Oc2c(-c3ccc(O)cc3)oc3cc(O)cc(O)c3c2=O)O[C@H]1CC(C)C	RPS6KA3 (Homo sapiens, UniProt P51812)	enzyme activity, inhibitor	–	–	0.32 µM
Cc1cnc(C(=O)N[C@@H](Cc2cn(C(C)C)cn2)C(=O)N2CCC[C@H]2C(N)=O)cn1	Thyrotropin-releasing hormone receptor (Mus musculus, UniProt P21761)	ligand displacement, radioligand	–	–	> 50 µM
N#Cc1c(O)nsc1Nc1ccccc1C(F)(F)F	SARM1 (Homo sapiens, UniProt Q6SZW1, C649A)	enzyme activity, inhibitor	–	–	0.57 µM
CC(C)C[C@H](NC(=O)[C@@H]1CCC(=O)N1)C(=O)N[C@@H](Cc1ccc(O)cc1)C(=O)N[C@@H](CCC(=O)O)C(=O)N[C@@H](CC(N)=O)C(=O)N[C@@H](CCCCN)C(=O)N1CCC[C@H]1C(=O)N[C@@H](CCCNC(=N)N)C(=O)O	NTSR1 (Homo sapiens, UniProt P30989)	ligand displacement in cells, radioligand	–	–	> 2 µM
CC1=C(/C=C/C(C)=C/C=C/C(C)=C/C=O)C(C)(C)CCC1	CNGA1 (Bos taurus, UniProt Q00194)	cGMP-activated current, inhibitor, inside-out patch clamp	–	+100 mV, with: saturating cGMP 2 mM	0.22 µM

Excerpt of the above:
Structure (SMILES)	target	assay	system	setting	IC50
Cc1ccc(C=C2C(=O)c3ccccc3C2NC2CCCCC2)cc1 (racemic)	Dual specificity protein phosphatase 6 (Homo sapiens, UniProt Q16828)	ERK phosphorylation restoration, inhibitor, chemical complementation	HeLa transfected with c-Myc-DUSP6	15 min, with: TPA	64.7 ± 15.7 µM
Nc1ncnc2c1ncn2C1OC(COP(=O)(O)O)C(O)C1O (centres unmarked)	Fructose-1,6-bisphosphatase 1 (Mus musculus, UniProt Q9QXD6)	enzyme activity, inhibitor	native enzyme from mouse liver	–	~20 µM
CC(=O)N[C@@H]1[C@@H](OC(C)=O)[C@@H](O)[C@H](Oc2c(-c3ccc(O)cc3)oc3cc(O)cc(O)c3c2=O)O[C@H]1CC(C)C	RPS6KA3 (Homo sapiens, UniProt P51812)	enzyme activity, inhibitor	–	–	0.32 µM
Cc1cnc(C(=O)N[C@@H](Cc2cn(C(C)C)cn2)C(=O)N2CCC[C@H]2C(N)=O)cn1	Thyrotropin-releasing hormone receptor (Mus musculus, UniProt P21761)	ligand displacement, radioligand	–	–	> 50 µM
